Experimental data from different studies.
Every numbered part comes from another study and shows a few of its results, in no order. Substitutions count along the parent as printed.

Set 1
Target: ABI1, truncated, D143A, DHFR fusion (Arabidopsis thaliana)
Method: DHFR PCA, deep sequencing
Medium: yeast
Notes: methotrexate growth selection, single substitutions
Added: (+)-ABA 4.8 µM
Reference: wild-type fitted maximum
Direction: higher = stronger binding
Starting sequence: PYL1, truncated, DHFR fusion (Arabidopsis thaliana); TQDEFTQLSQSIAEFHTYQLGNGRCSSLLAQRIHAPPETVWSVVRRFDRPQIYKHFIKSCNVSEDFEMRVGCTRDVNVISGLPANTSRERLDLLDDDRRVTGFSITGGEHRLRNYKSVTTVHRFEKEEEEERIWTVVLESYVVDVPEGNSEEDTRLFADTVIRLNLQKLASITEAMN
`L29A`: “relative binding score” 5.47%.
`P37R`: “relative binding score” 1.61%.
For `L28S`, “relative binding score” read 6.7%.
For `V76N`, “relative binding score” read 2.2%.
Under “relative binding score”, `T101W` is recorded as 0.673%.
Under “relative binding score”, `Y53G` is recorded as -0.901%.
`R88D` — result for “relative binding score”: 8.25%.
For `D153T`, “relative binding score” read -10.3%.
`L169M`: “relative binding score” -11%.
Under “relative binding score”, `Q19F` is recorded as 43%.
`E131P` — result for “relative binding score”: 88.2%.
Under “relative binding score”, `V100D` is recorded as -8.6%.
`R123P` — result for “relative binding score”: 72.1%.
For `R69S`, “relative binding score” read 66%.
Under “relative binding score”, `L112K` is recorded as -2.52%.
Under “relative binding score”, `Q31K` is recorded as 60.6%.
For `V142L`, “relative binding score” read 24.7%.
For `I105F`, “relative binding score” read -4.61%.
`V143H`: “relative binding score” -1.84%.
Under “relative binding score”, `E139T` is recorded as 83%.
For `C72K`, “relative binding score” read 21.6%.
For `E64R`, “relative binding score” read 67.3%.
`E147P` — result for “relative binding score”: 74%.

Set 2
Target: Histone acetyltransferase KAT6A, both winged helices, GST fusion (KAT6A, Homo sapiens, UniProt Q92794, residues 1-181)
Method: protein binding microarray
Molecule type: double-stranded DNA, one strand shown
Medium: in vitro
Tested at: not given
Notes: 8-mer, flanks averaged, mean of 2 arrays, mostly near background
Reference: not given
Direction: higher = stronger binding
Target sequence (chain): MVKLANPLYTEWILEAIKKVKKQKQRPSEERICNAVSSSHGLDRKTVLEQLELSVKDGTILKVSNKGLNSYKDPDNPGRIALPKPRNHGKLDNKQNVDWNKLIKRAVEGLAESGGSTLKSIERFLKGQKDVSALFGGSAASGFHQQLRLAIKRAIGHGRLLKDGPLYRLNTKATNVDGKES
`CCCGCCAA` has an E-score of 0.182.
For `CTACCGTA`, the E-score was 0.114.
`ACAAGAGA` has an E-score of -0.134.
With `GGTTAGGA` the E-score was -0.177.
`TCGTGGAA` has an E-score of -0.0972.
With `GGAAGAGA` the E-score was -0.0618.
With `CTAGATGC` the E-score was -0.00721.
`AGACAAGA` has an E-score of -0.0854.
For `CCCGCCTC`, the E-score was 0.177.
The E-score of `GTTCCCTA` is reported as -0.0846.
With `CTAACGGA` the E-score was 0.199.
The E-score of `AAAGTAAG` is reported as -0.119.
For `AAAACACT`, the E-score was 0.0844.
The E-score of `GTCAACAA` is reported as -0.0081.
The E-score of `AGCCTCTG` is reported as -0.247.
`AGGCTCCC` has an E-score of -0.238.
`AGTATACG` has an E-score of 0.0917.
`GACTTCGA` has an E-score of -0.0113.
`GAGGTCGA` gave an E-score of -0.216.
`TAAATGAA` has an E-score of -0.136.

Set 3
Target: Interferon regulatory factor 3, full length, phosphomimetic (IRF3, Homo sapiens, UniProt Q14653, residues 1-427, S386D/S396D/S398D/S402D/T404D/S405D)
Method: protein-binding microarray
Molecule type: double-stranded DNA, one strand shown
Medium: in vitro
Tested at: 2540 nM top
Notes: 60-bp whole probe
Added: salmon DNA 0.4 mg/ml
Reference: random background probes
Direction: higher = stronger binding
All sequences stand within: GCCTAGCAC … GTCTTGATTCGCTTGACGCTGCTG
Target sequence (chain): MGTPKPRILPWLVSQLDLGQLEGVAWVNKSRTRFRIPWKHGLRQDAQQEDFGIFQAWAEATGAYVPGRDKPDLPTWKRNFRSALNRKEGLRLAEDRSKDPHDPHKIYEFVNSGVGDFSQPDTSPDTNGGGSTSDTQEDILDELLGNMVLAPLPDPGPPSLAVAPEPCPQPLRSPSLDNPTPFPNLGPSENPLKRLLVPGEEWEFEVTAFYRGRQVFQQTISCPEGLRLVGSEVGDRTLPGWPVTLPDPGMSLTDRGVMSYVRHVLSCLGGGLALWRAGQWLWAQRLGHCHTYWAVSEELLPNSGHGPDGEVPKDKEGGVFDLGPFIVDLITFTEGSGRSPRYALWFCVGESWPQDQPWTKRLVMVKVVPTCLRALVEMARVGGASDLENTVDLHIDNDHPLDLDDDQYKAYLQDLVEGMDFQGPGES
Under “fitted relative affinity”, `GAAGATCTCAGACTGGAGACGTGCTAG` is recorded as -0.373 z-score.
For `GACGGTTTCGGTAGCGGGACGTGCTAG`, “fitted relative affinity” read 5.65 z-score.
`AGGGCAGGGAGGGGGACAGCGTGCTAG`: “fitted relative affinity” -0.227 z-score.
`GACGGACTGCTCCTGCTGACGTGCTAG` — result for “fitted relative affinity”: -0.679 z-score.
`GACGGTCTCCTTCTCCTTACGTGCTAG` — result for “fitted relative affinity”: 3.96 z-score.
`GACGGTTTCGGCTTTCGGGACGTGCTA` — result for “fitted relative affinity”: 4.14 z-score.
Under “fitted relative affinity”, `TTAGATATCGGGTATCGATGAGTGCTA` is recorded as -0.0234 z-score.
For `CTAGAACTGAGACTGGATTAGTGCTAG`, “fitted relative affinity” read -0.234 z-score.
`GATGAATAAAGCGTTGCTGCGTGCTAG` — result for “fitted relative affinity”: -0.519 z-score.
`GACGGACTGGCGTATCGGGACGTGCTA`: “fitted relative affinity” -0.425 z-score.
`GCCGGTATCCTACTGCTGACGTGCTAG` — result for “fitted relative affinity”: 3.08 z-score.
For `GACGGTATCCTACTGCTCACGTGCTAG`, “fitted relative affinity” read 2.56 z-score.
For `TTAGGTATCGACTTTCTGTTAGTGCTA`, “fitted relative affinity” read 1.3 z-score.
Under “fitted relative affinity”, `GACGGTTTTCTACTGCTGACGTGCTAG` is recorded as 1.71 z-score.
`TTAGGACTTGGTCTCGGTTAGTGCTAG` — result for “fitted relative affinity”: -0.351 z-score.
`TCAGTTTTCAGTTTCACACTGTGCTAG` — result for “fitted relative affinity”: 5.16 z-score.
Under “fitted relative affinity”, `TTAGGTTTCCTAATGCTTTAGTGCTAG` is recorded as 6.18 z-score.
For `GACGGACTGCGTCTCGGGACGTGCTAG`, “fitted relative affinity” read -0.78 z-score.
Under “fitted relative affinity”, `GCCGGTATCGGTTTCGGGACGTGCTAG` is recorded as 7.09 z-score.
`TCTGTTTCCTCTTTCTTTGCGTGCTAG`: “fitted relative affinity” 5.52 z-score.
`GTGTTTCTCAGTTTATTTATGTGCTAG` — result for “fitted relative affinity”: 1.9 z-score.
Under “fitted relative affinity”, `TCACCCCTCCCCCTCAGACTGTGCTAG` is recorded as 0.118 z-score.
`GAAGGTATCCTTTTCCTGACGTGCTAG`: “fitted relative affinity” 8.22 z-score.
Under “fitted relative affinity”, `GACGATATCCTTATCCTGACGTGCTAG` is recorded as 2.4 z-score.
For `TTAGAGTTCAGTTCCGATTAGTGCTAG`, “fitted relative affinity” read 1.81 z-score.

Set 4
Target: CCNE1, cyclin fold, Cln2 fusion (human)
Method: yeast growth competition, sequencing
Medium: yeast
Notes: strong parent motif
Reference: not given
Direction: higher = stronger binding
Starting sequence: BRCA2 docking peptide (human); CKKRRALDFLSRL
Under “normalised enrichment score”, `R5A L7A` is recorded as 0.774.
`R5K F9L`: “normalised enrichment score” 0.705.
For `R12A`, “normalised enrichment score” read 2.52.
Under “normalised enrichment score”, `F9L` is recorded as 1.02.
Under “normalised enrichment score”, `K3A` is recorded as 1.7.
Under “normalised enrichment score”, `L10A` is recorded as 1.4.
Under “normalised enrichment score”, `K2A` is recorded as 1.78.
`L13A` — result for “normalised enrichment score”: 1.09.
Under “normalised enrichment score”, `F9A` is recorded as 0.854.

For quick reference, copied from above (set 2):
The E-score of `GTTCCCTA` is reported as -0.0846.
With `CTAACGGA` the E-score was 0.199.
The E-score of `AAAGTAAG` is reported as -0.119.
For `AAAACACT`, the E-score was 0.0844.
The E-score of `GTCAACAA` is reported as -0.0081.
The E-score of `AGCCTCTG` is reported as -0.247.
`AGGCTCCC` has an E-score of -0.238.
`AGTATACG` has an E-score of 0.0917.
`GACTTCGA` has an E-score of -0.0113.
